Measurements collected from several papers.
Lines come from different studies, so protocols differ. “And” joins repeats or separate records; there may be more than shown. ± gives the spread as reported.

SMILES = Cc1ccc([C@@H]2O[C@H](CO)[C@@H](O)[C@H](O)[C@H]2O)cc1Cc1ccc(-c2ccc(F)cc2)s1; system = Japanese type 2 diabetes patients; setting = 400 mg, day 6, 24 h urine collection; how to read = relative to: baseline; endpoint = urinary potassium excretion change; value = -4.63 mEq
SMILES = N#C[C@@]1(c2ccc3c(N)ncnn23)O[C@H](CO)[C@@H](O)[C@H]1O; test = plasma protein binding; system = dog plasma; setting = 10 µM; endpoint = bound fraction; value = 0.0684
SMILES = COc1cc2c(c(OC)c1OC)C(=O)c1c(cc(C)c(O)c1OC)C2=O; target or system = HK-2 co-cultured with HepaRG; test = MTT; setting = 66.67 µM, 24 h; how to read = relative to: untreated control; endpoint = viability; value = 65 ± 4.49%
SMILES = CC(C)n1c(Nc2cccnc2)nc2cnc(Nc3ccc(N4CCN(C)CC4)cc3)nc21; test = measured: LDL cholesterol increased; system = healthy male subjects; setting = oral, 150 mg, study, together with: rifampin; endpoint = subjects with adverse event; value = 0%
SMILES = COc1cc2c(c(O)c1OC)C(=O)c1c(cc(C)c(O)c1OC)C2=O; target or system = HK-2 co-cultured with HepaRG; test = MTT; setting = 66.67 µM, 24 h; how to read = relative to: untreated control; endpoint = cell viability; value = 47.6 ± 8.83%
SMILES = COc1cc(N2CCC3(CCN(C)CC3)CC2)ccc1Nc1ncc(Cl)c(Nc2ccccc2P(C)(C)=O)n1; test = population PK model; system = human; setting = oral, base structural model, unit not given; how to read = relative to: fasting; endpoint = food effect on Ka; value = 0.588
SMILES = CCc1nc(C(N)=O)c(Nc2ccc(N3CCC(N4CCN(C)CC4)CC3)c(OC)c2)nc1NC1CCOCC1; system = Japanese patients, plasma; setting = oral, 300 mg, cycle 0 day -2, single dose, median; endpoint = AUC(0-24); value = 5370 ng·h/mL
SMILES = O=C(COc1ccc(Cl)cc1)NC12CC(c3nnc([C@H]4C[C@@H](OC(F)(F)F)C4)o3)(C1)C2; system = human both sexes; setting = oral, 145 mg once daily, 14 days; endpoint = participants maximum mild TEAE; value = 85.7%
SMILES = CCCCCCCCCCCCCCCC(=O)N[C@@H](CCC(=O)NCCCC[C@@H]1NC(=O)[C@H]([C@@H](C)CC)NC(=O)[C@@H](NC(=O)[C@@H]2CCCN2C(=O)[C@H](Cc2ccccc2)NC(=O)[C@H](Cc2c[nH]cn2)NC(=O)[C@@H](NC(=O)[C@H](CC(=O)O)NC(=O)CC(C)C)[C@@H](C)O)CSSC[C@@H](C(=O)N[C@@H](CCCCN)C(N)=O)NC(=O)CNC(=O)[C@H](CCCCN)NC(=O)[C@H](CO)NC(=O)[C@H](CCCNC(=N)N)NC(=O)[C@@H]2CCCN2C(=O)[C@H](CCC(=O)O)NC(=O)[C@H](Cc2ccccc2)NC1=O)C(=O)O; system = healthy volunteers, plasma; setting = subcutaneous, 30 mg single, lyophilised formulation; endpoint = Vz/F; value = 47.3 ± 18.4 L
SMILES = c1csc(CNc2cc[nH]n2)c1; target or system = human peripheral blood lymphocytes, female; setting = 1130 µg/mL, 4 h, without S9; endpoint = cells with structural aberrations; value = 0.5%
SMILES = C[C@H]1O[C@@H](O[C@H]2CC[C@@]3(C)[C@@H](CC[C@]4(C)[C@@H]3C=C[C@]35OC[C@@]6(CCC(C)(C)C[C@H]63)[C@@H](O)C[C@]54C)[C@]2(C)CO)[C@H](O)[C@@H](O[C@@H]2O[C@H](CO)[C@@H](O)[C@H](O)[C@H]2O)[C@H]1O; test = UHPLC-MS/MS; system = mouse, plasma; setting = oral, 50 mg/kg, 2 h, pooled samples; endpoint = plasma concentration; value = 3.53 ng/mL and 3.36 ng/mL
SMILES = Cn1cnc2c(F)c(Nc3ccc(Br)cc3Cl)c(C(=O)NOCCO)cc21; system = human, plasma; setting = oral, dose not given, zero-order absorption; endpoint = central volume of distribution; value = 38.8 L
SMILES = Cc1ccc(Sc2ccccc2N2CCNCC2)c(C)c1; test = measured: abdominal pain; system = healthy adult men; setting = oral, 5 mg daily, 12 days; endpoint = participants with TEAE; value = 0%
SMILES = Oc1ccc(/C=C/c2cc(O)cc(O)c2)cc1; system = rat, azoxymethane-injected, blood; setting = in vivo, 100 mg/kg, at sacrifice; endpoint = T-BIL level; value = 0.05 mg/dL and 0.04 mg/dL
SMILES = CC(C(=O)NCC(=O)NCC(CNC(=O)CNC(=O)C(C)N1CCN(CC(=O)[O-])CCN(CC(=O)[O-])CCN(CC(=O)[O-])CC1)(CNC(=O)CNC(=O)C(C)N1CCN(CC(=O)[O-])CCN(CC(=O)[O-])CCN(CC(=O)[O-])CC1)CNC(=O)CNC(=O)C(C)N1CCN(CC(=O)[O-])CCN(CC(=O)[O-])CCN(CC(=O)[O-])CC1)N1CCN(CC(=O)[O-])CCN(CC(=O)[O-])CCN(CC(=O)[O-])CC1.[Gd+3].[Gd+3].[Gd+3].[Gd+3] (centres unmarked); test = ICP-MS; system = cynomolgus monkey; setting = dose not given, 5 d, mass balance group; how to read = relative to: dose; endpoint = cumulative urinary excretion; value = 100%
SMILES = C[C@@H](N)C1CCN(S(=O)(=O)c2cccc3cnccc23)CC1; system = healthy volunteers, plasma; setting = oral, 150 mg, fed, single dose; endpoint = Vz/F; value = 10800 L
SMILES = CC[C@H](C)[C@H](NC(=O)[C@H](CCCNC(=N)N)NC(=O)[C@H](CCC(=O)O)NC(C)=O)C(=O)N[C@H]1CSSC[C@@H](C(=O)N[C@H](C(N)=O)[C@@H](C)O)NC(=O)[C@H](CCCNC(=N)N)NC(=O)[C@H](Cc2c[nH]cn2)NC(=O)[C@H](Cc2cccc3ccccc23)NC(=O)CNC(=O)[C@H](Cc2c[nH]c3ccccc23)NC(=O)[C@H](CC(=O)O)NC(=O)[C@H](CCC(N)=O)NC(=O)[C@H](Cc2cccc3ccccc23)NC(=O)[C@H](C(C)C)NC1=O; test = isocratic RP-HPLC, C18; system = 32% acetonitrile, phosphate pH 7.4, 1% TFA; setting = 25 °C; endpoint = retention factor; value = 3.269 ± 0.004
SMILES = CCc1cc(C(=O)NC)c2nccc(N3CCc4c(cc(Cn5ccnc5)cc4-c4cn(C)nc4C(F)(F)F)C3=O)c2c1; system = Sprague Dawley rats; setting = oral, 100 mg/kg once daily, 7 days; endpoint = serum UA level; value = 288 ± 27.3 µmol/L
SMILES = CCN1/C(=C/C(C)=O)Sc2ccc(F)cc21; system = cynomolgus monkey; setting = oral, 30 mg/kg, 2 h post-dose; endpoint = QTc interval (Bazett); value = 326 ± 8 ms
SMILES = COc1cccc(OC)c1-c1cc(C(=O)NC2(C(=O)O)C3CC4CC(C3)CC2C4)nn1-c1ccc(C(=O)N(C)CCCN(C)CCCN(C)C(=O)CN2CCN(CC(=O)[O-])CCN(CC(=O)[O-])CCN(CC(=O)[O-])CC2)cc1C(C)C.[177Lu+3] (centres unmarked); system = mouse HT-29 xenograft, small intestine; setting = 72 h post injection, biodistribution; endpoint = tissue uptake; value = 0.103 %ID/g

For quick reference, copied from above:
SMILES = CCCCCCCCCCCCCCCC(=O)N[C@@H](CCC(=O)NCCCC[C@@H]1NC(=O)[C@H]([C@@H](C)CC)NC(=O)[C@@H](NC(=O)[C@@H]2CCCN2C(=O)[C@H](Cc2ccccc2)NC(=O)[C@H](Cc2c[nH]cn2)NC(=O)[C@@H](NC(=O)[C@H](CC(=O)O)NC(=O)CC(C)C)[C@@H](C)O)CSSC[C@@H](C(=O)N[C@@H](CCCCN)C(N)=O)NC(=O)CNC(=O)[C@H](CCCCN)NC(=O)[C@H](CO)NC(=O)[C@H](CCCNC(=N)N)NC(=O)[C@@H]2CCCN2C(=O)[C@H](CCC(=O)O)NC(=O)[C@H](Cc2ccccc2)NC1=O)C(=O)O; system = healthy volunteers, plasma; setting = subcutaneous, 30 mg single, lyophilised formulation; endpoint = Vz/F; value = 47.3 ± 18.4 L
SMILES = c1csc(CNc2cc[nH]n2)c1; target or system = human peripheral blood lymphocytes, female; setting = 1130 µg/mL, 4 h, without S9; endpoint = cells with structural aberrations; value = 0.5%
SMILES = C[C@H]1O[C@@H](O[C@H]2CC[C@@]3(C)[C@@H](CC[C@]4(C)[C@@H]3C=C[C@]35OC[C@@]6(CCC(C)(C)C[C@H]63)[C@@H](O)C[C@]54C)[C@]2(C)CO)[C@H](O)[C@@H](O[C@@H]2O[C@H](CO)[C@@H](O)[C@H](O)[C@H]2O)[C@H]1O; test = UHPLC-MS/MS; system = mouse, plasma; setting = oral, 50 mg/kg, 2 h, pooled samples; endpoint = plasma concentration; value = 3.53 ng/mL and 3.36 ng/mL
